Measurements of several laboratories.
Compare with care: the assays were run in different laboratories. Values joined by “and” are separate records of one study, mostly repeats; a detail may differ. ± marks the error that the study gave.
CYP2D6: Cytochrome P450 2D6 (CYP2D6, Homo sapiens, UniProt P10635)
Sequence of UniProt P10635 (whole entry, looked up): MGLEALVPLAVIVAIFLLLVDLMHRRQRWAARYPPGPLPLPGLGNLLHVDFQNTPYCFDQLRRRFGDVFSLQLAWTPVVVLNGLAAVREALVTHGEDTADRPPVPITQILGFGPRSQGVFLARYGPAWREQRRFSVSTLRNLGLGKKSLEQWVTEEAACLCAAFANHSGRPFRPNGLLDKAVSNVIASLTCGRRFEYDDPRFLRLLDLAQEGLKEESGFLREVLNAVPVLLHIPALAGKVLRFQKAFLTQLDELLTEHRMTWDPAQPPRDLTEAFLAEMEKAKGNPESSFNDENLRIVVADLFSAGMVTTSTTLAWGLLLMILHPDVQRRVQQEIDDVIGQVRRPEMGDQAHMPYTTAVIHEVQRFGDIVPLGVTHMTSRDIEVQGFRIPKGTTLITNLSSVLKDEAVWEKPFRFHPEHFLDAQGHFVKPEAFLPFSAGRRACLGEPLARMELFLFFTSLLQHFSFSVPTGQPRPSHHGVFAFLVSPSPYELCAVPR
Sequence of UniProt Q9H422 (whole entry, looked up): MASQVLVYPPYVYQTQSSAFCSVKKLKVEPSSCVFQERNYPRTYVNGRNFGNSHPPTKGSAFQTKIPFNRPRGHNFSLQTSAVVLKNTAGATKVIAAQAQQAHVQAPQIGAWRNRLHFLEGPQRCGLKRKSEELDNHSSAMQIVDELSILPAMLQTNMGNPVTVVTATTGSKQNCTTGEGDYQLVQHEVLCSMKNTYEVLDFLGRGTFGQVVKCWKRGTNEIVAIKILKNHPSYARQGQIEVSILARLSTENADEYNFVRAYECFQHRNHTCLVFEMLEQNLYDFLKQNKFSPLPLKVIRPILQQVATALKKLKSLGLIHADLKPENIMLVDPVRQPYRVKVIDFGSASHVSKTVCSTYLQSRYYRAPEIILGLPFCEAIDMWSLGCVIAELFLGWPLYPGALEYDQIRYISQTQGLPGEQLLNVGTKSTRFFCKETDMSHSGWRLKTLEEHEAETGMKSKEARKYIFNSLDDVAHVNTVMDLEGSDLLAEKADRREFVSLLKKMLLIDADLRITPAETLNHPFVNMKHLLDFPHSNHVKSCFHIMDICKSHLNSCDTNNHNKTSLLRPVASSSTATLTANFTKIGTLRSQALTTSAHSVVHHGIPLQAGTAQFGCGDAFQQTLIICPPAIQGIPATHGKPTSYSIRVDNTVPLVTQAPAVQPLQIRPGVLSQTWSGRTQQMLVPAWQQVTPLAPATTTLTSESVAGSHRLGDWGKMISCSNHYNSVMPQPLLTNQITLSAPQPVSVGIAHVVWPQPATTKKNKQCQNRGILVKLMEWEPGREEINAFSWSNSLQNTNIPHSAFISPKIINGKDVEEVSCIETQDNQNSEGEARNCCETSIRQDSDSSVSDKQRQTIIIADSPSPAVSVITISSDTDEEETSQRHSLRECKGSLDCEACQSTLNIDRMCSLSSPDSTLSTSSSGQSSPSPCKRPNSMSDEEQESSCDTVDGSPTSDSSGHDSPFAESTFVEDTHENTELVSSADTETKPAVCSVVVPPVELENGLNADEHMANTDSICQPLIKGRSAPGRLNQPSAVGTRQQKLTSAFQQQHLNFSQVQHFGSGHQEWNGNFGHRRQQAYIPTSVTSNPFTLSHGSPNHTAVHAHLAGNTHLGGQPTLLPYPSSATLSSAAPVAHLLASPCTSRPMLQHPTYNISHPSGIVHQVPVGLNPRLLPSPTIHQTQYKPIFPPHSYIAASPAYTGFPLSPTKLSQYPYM
Sequence of UniProt Q96IU4 (whole entry, looked up): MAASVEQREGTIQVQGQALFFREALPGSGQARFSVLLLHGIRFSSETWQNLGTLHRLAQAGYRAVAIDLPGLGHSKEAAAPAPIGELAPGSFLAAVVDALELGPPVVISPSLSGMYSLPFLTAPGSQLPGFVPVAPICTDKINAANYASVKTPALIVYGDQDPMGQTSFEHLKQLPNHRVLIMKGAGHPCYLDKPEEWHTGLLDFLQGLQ
Sequence of UniProt Q9HB89 (whole entry, looked up): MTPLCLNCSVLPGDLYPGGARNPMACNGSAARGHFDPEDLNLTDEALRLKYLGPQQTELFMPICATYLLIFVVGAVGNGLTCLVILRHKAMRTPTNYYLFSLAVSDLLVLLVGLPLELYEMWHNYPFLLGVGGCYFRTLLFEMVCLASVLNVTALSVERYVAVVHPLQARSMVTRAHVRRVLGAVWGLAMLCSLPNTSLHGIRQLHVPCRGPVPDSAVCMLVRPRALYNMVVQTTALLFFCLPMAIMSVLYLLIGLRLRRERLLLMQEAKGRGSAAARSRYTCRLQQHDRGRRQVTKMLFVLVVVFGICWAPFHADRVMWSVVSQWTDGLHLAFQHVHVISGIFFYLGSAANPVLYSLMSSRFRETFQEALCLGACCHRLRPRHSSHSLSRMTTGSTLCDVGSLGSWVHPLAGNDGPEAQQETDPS
Sequence of UniProt P48047 (whole entry, looked up): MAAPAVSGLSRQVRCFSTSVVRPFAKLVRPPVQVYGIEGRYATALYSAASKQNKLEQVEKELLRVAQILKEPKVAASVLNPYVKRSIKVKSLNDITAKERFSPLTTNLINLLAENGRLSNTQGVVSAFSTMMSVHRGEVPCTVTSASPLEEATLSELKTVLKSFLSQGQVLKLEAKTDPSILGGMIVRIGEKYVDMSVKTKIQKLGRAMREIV

| SMILES | target or system | assay | test system | setting | how to read | measurement | result |
| --- | --- | --- | --- | --- | --- | --- | --- |
| COc1cc(Nc2ncc(F)c(Nc3ccc4c(n3)NC(=O)C(C)(C)O4)n2)cc(OC)c1OC | Neuromedin-U receptor 1 (NMUR1, Homo sapiens, UniProt Q9HB89) |  |  |  |  | IC50 | > 10 µM |
| COc1cccc(-c2n[nH]c(SCc3ccccn3)n2)c1OC | Salmonella typhimurium | Ames test, plate incorporation | TA1535 | 2.0 mg/plate, without S9 |  | revertant colonies per plate | 8 |
| COc1ccc(N2C(=O)N(c3c(C)cccc3Cl)Cc3cnc(Nc4ccc(C5CCN(C)CC5)cc4OC)nc32)nc1 | Homeodomain-interacting protein kinase 3 (HIPK3, Homo sapiens, UniProt Q9H422) | kinase activity |  | 0.5 µM |  | inhibition | 5% |
| C[C@@H](O)[C@H](NC(=O)[C@@H]1CSSC[C@H](NC(=O)[C@@H](Cc2ccccc2)NC(=O)CN2CCN(CC(=O)[O-])CCN(CC(=O)[O-])CCN(CC(=O)[O-])CC2)C(=O)N[C@@H](Cc2ccc(O)cc2)C(=O)N[C@H](Cc2c[nH]c3ccccc23)C(=O)N[C@@H](CCCCN)C(=O)N[C@@H]([C@@H](C)O)C(=O)N1)C(=O)O.[177Lu+3] | MEC1 | gamma counter |  | 240 min efflux after 2 h loading |  | retention | 24.7% |
| CC[C@@H](C)[C@@H](NC(=O)[C@@H](CC(C)C)NC(=O)[C@H](NC(=O)[C@H](NC(=O)[C@H](NC(=O)[C@@H](CCCCN)NC(=O)[C@@H](CCCCN)NC(=O)[C@@H](CCCCN)NC(=O)[C@H](N)CCCCN)C(C)C)[C@H](C)CC)[C@H](C)CC)C(=O)N[C@H](CO)C(=O)N[C@H](CC(C)C)C(=O)N[C@H](CCCCN)C(=O)N[C@H](CCCCN)C(=O)N[C@H](CCCCN)C(=O)N[C@H](CCCCN)C(=O)N[C@H](Cc1ccccc1)C(=O)N[C@H](CO)C(=O)N[C@H](C)C(=O)N[C@H](Cc1ccc(O)cc1)C(N)=O | human erythrocytes |  |  | 400 µM, 1 h | relative to: Triton X-100 | hemolysis | 30% |
| O=C1Nc2cc3[nH]nc(-c4ccncc4)c3cc2CN1Cc1ccccc1 |  | CTCAE v4.03 | advanced solid tumour patients | intravenous, 6.4 mg/kg |  | patients with diarrhoea | 11% |
| Cc1cc(C(=O)NC(C)(C)COc2cccc3c2C(N)=NS(=O)(=O)N3)cc(C)n1 | Salmonella typhimurium | Ames test, confirmatory | TA1537 | 1000 µg/plate, added: rat liver S9 | relative to: solvent control | revertant ratio | 1 |
| CC(C)CC(=O)OC[C@H]1O[C@@](C#N)(c2ccc3c(N)ncnn23)[C@H](O)[C@@H]1O | CYP2D6 | metabolic stability | recombinant enzyme | 1 µM, 30 min |  | remaining compound | 97.3 ± 2.24% |
| CCN(CC)C(=O)[C@@H]1C=C2c3cccc4[nH]cc(c34)C[C@H]2N(C)C1 |  |  | human | oral, 100 µg |  | half-life | 3.86 h and 3.13 h and 3.14 h and 3.56 h and 4.37 h and 4.59 h and 4.74 h |
| C[C@H]1CN(c2n[nH]c3nc(N[C@H]4CC[C@H](NS(=O)(=O)CCC(F)(F)F)CC4)ncc23)CCO1 | ATP synthase peripheral stalk subunit OSCP, mitochondrial (Homo sapiens, UniProt P48047) | Kinobeads competition, measured: ATP5O |  | 0.032 µM, unit not given | relative to: vehicle | remaining binding | 1.09 |
| CO[C@H]1C[C@@H]2CC[C@@H](C)[C@@](O)(O2)C(=O)C(=O)N2CCCC[C@H]2C(=O)O[C@H]([C@H](C)C[C@@H]2CC[C@@H](OC(=O)NCCOCCOCCOCCOCCOCCOCCOCCOCCC(=O)N3CCc4cc(Cn5nc(-c6ccc7oc(N)nc7c6)c6c(N)ncnc65)ccc4C3)[C@H](OC)C2)C[C@@H](O)[C@H](C)/C=C(\C)[C@@H](O)[C@@H](OC)C(=O)[C@H](C)C[C@H](C)/C=C/C=C/C=C/1C |  |  | patients with advanced solid tumours | intravenous, 8 mg weekly, grade 3 or higher |  | constipation incidence | 0% |
| CN1CC[C@@H](c2c(O)cc(O)c3c(=O)cc(-c4ccc(C(F)(F)F)cc4Cl)oc23)[C@@H]1CO |  | measured: Leukopenia | relapsed or refractory haematological malignancies | oral, dose not given, grade 3 to 4, all arms |  | patients with adverse event | 5% |
| O=C1c2c(O)c(=O)ccn2N([C@@H]2c3ccccc3SCc3c2ccc(F)c3F)[C@@H]2COCCN12 |  |  | BALB/c mice, plasma | oral, 1.5 mg/kg baloxavir marboxil, 12 h |  | plasma concentration | 0.967 ng/mL |
| C[C@@H](O)[C@@H](CO)NC(=O)[C@@H](CCCNC(=N)N)NC(=O)[C@@H]1CCCN1C(=O)[C@@H]1CSSC[C@H](NC(=O)[C@H](Cc2ccccc2)NC(=O)CN2CCN(CC(=O)O)CCN(CC(=O)O)CCN(CC(=O)O)CC2)C(=O)N[C@@H](Cc2ccc(O)cc2)C(=O)N[C@@H](Cc2ccccc2)C(=O)N[C@@H](CCC(N)=O)C(=O)N[C@@H](CC(N)=O)C(=O)N1 [gallium-68 labelled] |  |  | Wistar rat, healthy, urinary bladder | intravenous, 8 MBq, 30 min |  | tissue uptake | 4.32 %ID/g |
| CC[C@H](C)[C@H](NC(=O)[C@H](Cc1ccccc1)NC(=O)[C@H](CCC(=O)O)NC(=O)[C@H](CCCNC(=N)N)NC(=O)[C@H](C)NC(=O)[C@H](C)NC(=O)[C@H](CCC(N)=O)NC(=O)[C@H](CCC(=O)O)NC(=O)[C@H](CCC(=O)O)NC(=O)[C@H](CC(C)C)NC(=O)[C@H](Cc1ccc(O)cc1)NC(=O)[C@H](CO)NC(=O)[C@H](CO)NC(=O)[C@@H](NC(=O)[C@H](CC(=O)O)NC(=O)[C@H](CO)NC(=O)[C@@H](NC(=O)[C@H](Cc1ccccc1)NC(=O)[C@@H](NC(=O)CNC(=O)[C@H](CCC(=O)O)NC(=O)[C@H](C)NC(=O)CCc1c[nH]cn1)[C@@H](C)O)[C@@H](C)O)C(C)C)C(=O)N[C@@H](C)C(=O)N[C@@H](Cc1c[nH]c2ccccc12)C(=O)N[C@@H](CC(C)C)C(=O)N[C@H](C(=O)N[C@@H](CCCNC(=N)N)C(=O)NCC(=O)N[C@@H](CCCNC(=N)N)C(=O)N[C@@H](CCCCNC(=O)COCCOCCNC(=O)COCCOCCNC(=O)CC[C@H](NC(=O)CCCCCCCCCCCCCCCCC(=O)O)C(=O)O)C(=O)NCC(=O)NCC(=O)N[C@@H](CO)C(=O)N[C@@H](CCCCNc1c(NCCCCCN(O)C(=O)CCC(=O)NCCCCCN(O)C(=O)CCC(=O)NCCCCCN(O)C(C)=O)c(=O)c1=O)C(=O)O)C(C)C [zirconium-89 labelled] |  |  | rat, intestine | sc, 3 nmol/kg, 4 h, ex vivo |  | tissue uptake | 0.13 %ID/g |
| CC[C@H](C)[C@H](N)C(=O)N[C@@H](CO)C(=O)N[C@@H](Cc1ccccc1)C(=O)N[C@@H](CC(C)C)C(=O)NCC(=O)N[C@@H](CO)C(=O)N[C@@H](CCCCN)C(=O)N[C@H](C(=O)N[C@H](C(=O)N[C@H](C(=O)N[C@@H](CC(C)C)C(=O)N[C@@H](CC(C)C)C(=O)N[C@@H](CCCCN)C(=O)N[C@@H](CCCNC(=N)N)C(=O)N[C@@H](CCCNC(=N)N)C(=O)N[C@@H](CCCNC(=N)N)C(=O)N[C@@H](CCCNC(=N)N)C(=O)N[C@@H](CCCNC(=N)N)C(=O)N[C@@H](CCCNC(=N)N)C(=O)N[C@@H](CCCNC(=N)N)C(N)=O)C(C)C)C(C)C)C(C)C | human erythrocytes |  |  | 400 µM, 1 h | relative to: Triton X-100 | hemolysis | 14% |
| CCC1(c2ccccc2)C(=O)NC(=O)NC1=O | primary human hepatocytes | inducer |  | 1000 µM, unit not given | relative to: vehicle | CYP2B6 activity induction | 4.66 |
| CNC(C)Cc1ccc2c(c1)OCO2 (stereo not shown) | CYP2D6 | enzyme activity |  | 300 µM, preincubation with NADPH, added: dextromethorphan O-demethylation |  | remaining activity | 28.9% |
| COc1cc(CCC[P+](c2ccccc2)(c2ccccc2)c2ccccc2)c(OC)c2c1OCO2.[I-] | MOLT-4 | SRB |  |  |  | TGI | -4.72 log M |
| O=c1ccc2ccccc2o1 | HepaRG 3D spheroids | oxidative stress |  | 168 h, high-content imaging |  | point of departure | 727 µM |
| CC[C@H](C)[C@H](NC(=O)[C@H](C)NC(=O)[C@H](CCCCN)NC(=O)[C@H](CCCNC(=N)N)NC(=O)[C@H](CCCCN)NC(=O)[C@H](CCCNC(=N)N)NC(=O)[C@H](CCCCN)NC(=O)[C@@H](N)CCCNC(=N)N)C(=O)N[C@@H](CO)C(=O)NCC(=O)N[C@@H](CO)C(=O)N[C@@H](CC(C)C)C(=O)N[C@H](C(=O)N[C@H](C(=O)N[C@@H](CC(C)C)C(=O)N[C@@H](Cc1ccccc1)C(=O)NCC(=O)N[C@@H](Cc1ccc(O)cc1)C(N)=O)[C@@H](C)O)C(C)C | human erythrocytes |  |  | 400 µM, 1 h | relative to: Triton X-100 | hemolysis | 17% |
| O=[N+]([O-])c1ccc(N2CCN(CCC(O)c3ccc(F)cc3)CC2)c(C(F)(F)F)c1 (stereo not shown) | Salmonella typhimurium | SOS/umu test | TA1535/pSK1002 | 0.016 mg/mL, 4 h, with S9, lower range |  | survival | 105% |
| CC[C@H](C)[C@H](NC(=O)[C@H](C)N)C(=O)N[C@@H](CO)C(=O)NCC(=O)N[C@@H](CO)C(=O)N[C@@H](CC(C)C)C(=O)N[C@H](C(=O)N[C@H](C(=O)N[C@@H](CC(C)C)C(=O)N[C@@H](Cc1ccccc1)C(=O)NCC(=O)N[C@@H](Cc1ccc(O)cc1)C(=O)N[C@@H](CCCNC(=N)N)C(=O)N[C@@H](CCCNC(=N)N)C(=O)N[C@@H](CCCNC(=N)N)C(=O)N[C@@H](CCCNC(=N)N)C(=O)N[C@@H](CCCNC(=N)N)C(=O)N[C@@H](CCCNC(=N)N)C(N)=O)[C@@H](C)O)C(C)C | human erythrocytes |  |  | 400 µM, 1 h | relative to: Triton X-100 | hemolysis | 28% |
| O=C(c1ccc(Cl)cc1)N1CCN2C(=O)N(OC(=O)N3CCOc4ccccc43)C(=O)C2C1 (stereo not shown) | Putative protein-lysine deacylase ABHD14B (Homo sapiens, UniProt Q96IU4) | enzyme activity, inhibitor, MS-based ABPP | SW-620 conditioned medium | 10 µM, 1 h, 37 °C | relative to: compound over DMSO, lower = stronger inhibition | median ratio | 1.47 |
| CC[C@H](C)[C@@H]1NC(=O)[C@@H]2CCCN2C(=O)[C@H](CC(C)C)NC(=O)[C@H](CC(C)C)NC(=O)CNC(=O)[C@@H](NC(=O)[C@@H](NC(=O)[C@H](CC(=O)O)NC(=O)CNC(=O)[C@@H](NC(=O)[C@H](C)NC(=O)CNC(=O)[C@H](CCCCN)NC(=O)[C@H](CC(C)C)NC(=O)[C@H](CC(C)C)NC(=O)[C@H](CCCCN)NC(=O)CNC(=O)[C@@H](NC(=O)[C@@H](N)CC(C)C)C(C)C)C(C)C)C(C)C)CSSC[C@@H](C(=O)O)NC1=O |  | RNA-seq, measured: Rgs18 | mouse, traumatic brain injury model, frontal cortex and hippocampus | dose not given | relative to: TBI alone | log2 fold change | -4.61 |
| OCc1ncc2n1-c1ccc(Cl)cc1C(c1ccccc1F)=NC2 |  |  | human, plasma | oral, 7.5 mg of midazolam, day 26, geometric mean, no amenamevir |  | AUC(0-inf) | 41.6 ng·h/mL |
| COc1cc2c(Oc3ccc4[nH]c(C)cc4c3F)ccnc2cc1OCC1(N)CC1 |  |  | paediatric recurrent refractory sarcoma | 10 mg |  | grade 3 AST elevation | 0% |
| CCCCCCCCCCC(=O)O[C@H]1CC[C@H]2[C@@H]3CCC4=CC(=O)CC[C@]4(C)[C@H]3CC[C@]12C |  |  | human male serum | 500 ng/mL, NaF 50.0 mg/mL, baseline testosterone 441 ng/dL |  | testosterone level | 445 ng/dL |

Repeated from above:
| SMILES | target or system | assay | test system | setting | how to read | measurement | result |
| --- | --- | --- | --- | --- | --- | --- | --- |
| O=C1Nc2cc3[nH]nc(-c4ccncc4)c3cc2CN1Cc1ccccc1 |  | CTCAE v4.03 | advanced solid tumour patients | intravenous, 6.4 mg/kg |  | patients with diarrhoea | 11% |
| Cc1cc(C(=O)NC(C)(C)COc2cccc3c2C(N)=NS(=O)(=O)N3)cc(C)n1 | Salmonella typhimurium | Ames test, confirmatory | TA1537 | 1000 µg/plate, added: rat liver S9 | relative to: solvent control | revertant ratio | 1 |
| CCC1(c2ccccc2)C(=O)NC(=O)NC1=O | primary human hepatocytes | inducer |  | 1000 µM, unit not given | relative to: vehicle | CYP2B6 activity induction | 4.66 |
| CC[C@H](C)[C@H](NC(=O)[C@H](C)N)C(=O)N[C@@H](CO)C(=O)NCC(=O)N[C@@H](CO)C(=O)N[C@@H](CC(C)C)C(=O)N[C@H](C(=O)N[C@H](C(=O)N[C@@H](CC(C)C)C(=O)N[C@@H](Cc1ccccc1)C(=O)NCC(=O)N[C@@H](Cc1ccc(O)cc1)C(=O)N[C@@H](CCCNC(=N)N)C(=O)N[C@@H](CCCNC(=N)N)C(=O)N[C@@H](CCCNC(=N)N)C(=O)N[C@@H](CCCNC(=N)N)C(=O)N[C@@H](CCCNC(=N)N)C(=O)N[C@@H](CCCNC(=N)N)C(N)=O)[C@@H](C)O)C(C)C | human erythrocytes |  |  | 400 µM, 1 h | relative to: Triton X-100 | hemolysis | 28% |
